Experimental data collected from several papers.
Each numbered part is a random draw from the data of one study; scales do not carry over between parts. Changes are numbered by the printed parent chain.

Study 1 — technique: protein binding microarray; molecule type: double-stranded DNA, one strand shown; medium: in vitro; tested at: not given; baseline: not given; direction: higher = stronger binding; quantity: E-score
Target: Histone acetyltransferase KAT6A, both winged helices, GST fusion (KAT6A, Homo sapiens, UniProt Q92794, residues 1-181)
Setting: 8-mer, flanks averaged, mean of 2 arrays, mostly near background
Construct (chain): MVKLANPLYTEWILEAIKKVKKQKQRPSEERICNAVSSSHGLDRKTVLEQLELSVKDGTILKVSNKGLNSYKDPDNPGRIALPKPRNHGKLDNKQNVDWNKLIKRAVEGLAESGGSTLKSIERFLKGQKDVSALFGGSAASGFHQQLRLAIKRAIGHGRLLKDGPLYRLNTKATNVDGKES
GCTTGGCA: -0.143
CAGCATCG: -0.0519
CCCCACAC: -0.251
CGCCAAAG: 0.117
AAGGGGCC: -0.166

Study 2 — target: CCNA1, cyclin fold, Cln2 fusion (human); technique: yeast growth competition, sequencing; medium: yeast; setting: weak parent motif; baseline: not given; direction: higher = stronger binding; quantity: normalised enrichment score
Parent: CDC25A docking peptide (human); PPHRRRLLFACSP; partner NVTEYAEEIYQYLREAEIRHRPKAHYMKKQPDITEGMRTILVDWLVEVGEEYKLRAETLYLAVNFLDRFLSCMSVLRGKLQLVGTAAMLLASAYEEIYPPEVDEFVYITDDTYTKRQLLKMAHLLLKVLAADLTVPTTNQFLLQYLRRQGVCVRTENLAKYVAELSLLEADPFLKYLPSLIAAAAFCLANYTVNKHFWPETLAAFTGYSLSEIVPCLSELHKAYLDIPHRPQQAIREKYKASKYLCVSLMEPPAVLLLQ
PPHRRRLLFGCSP [A10G]: 0.0925
PPWRRRLLFACSP [H3W]: 0.199
PPHRRRLLFAQSP [C11Q]: 0.919

Study 3 — technique: protein-binding microarray; molecule type: double-stranded DNA, one strand shown; medium: in vitro; tested at: 250 nM; setting: 60-bp whole probe; with: salmon DNA 0.4 mg/ml; baseline: random background probes; direction: higher = stronger binding; quantity: log fluorescence; constant ends, left off below: GCCTAGCAC … GTCTTGATTCGCTTGACGCTGCTG
Target: Interferon regulatory factor 7, full length, phosphomimetic (IRF7, Homo sapiens, UniProt Q92985, residues 1-503, S101K/S471D/S472D/S475D/S476D/S477D/S483D/S484D/S487D)
Residues (chain): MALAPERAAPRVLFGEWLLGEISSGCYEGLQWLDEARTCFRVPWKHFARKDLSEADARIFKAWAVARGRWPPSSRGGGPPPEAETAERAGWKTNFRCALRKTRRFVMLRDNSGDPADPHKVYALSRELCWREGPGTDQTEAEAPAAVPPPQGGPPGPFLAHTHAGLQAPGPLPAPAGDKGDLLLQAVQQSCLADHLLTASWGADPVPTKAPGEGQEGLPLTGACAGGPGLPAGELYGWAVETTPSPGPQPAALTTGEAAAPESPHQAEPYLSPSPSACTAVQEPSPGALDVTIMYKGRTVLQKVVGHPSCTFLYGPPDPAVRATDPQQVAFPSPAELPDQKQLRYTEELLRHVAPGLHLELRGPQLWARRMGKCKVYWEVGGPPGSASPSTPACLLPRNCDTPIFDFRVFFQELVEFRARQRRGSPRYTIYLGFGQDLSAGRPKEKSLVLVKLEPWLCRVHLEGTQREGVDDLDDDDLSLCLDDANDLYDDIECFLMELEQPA
TTAGATATCAGTATCGACTAGTGCTAG: 0.048 z-score
TTAGCTTTCAGTCTCGATTAGTGCTAG: 1.19 z-score
GACCGACTGGGTATCGGGACGTGCTAG: 0.0726 z-score
TTAGGTATCCTTTGCCTTTAGTGCTAG: 0.136 z-score
TTGGATTTCGGGACTGGATTAGTGCTA: 0.184 z-score
GACGGCTTCCTACTGCTGACGTGCTAG: -0.35 z-score
GACGAACTGTGTATCGAGACGTGCTAG: -0.293 z-score

Other studies, line by line
PhoQ, residues 284 288 289 292 302 303 SSCLAV — fold induction (PhoP, residues 12 14 15 18 19 IFFTR (Escherichia coli, UniProt P23836); Sort-seq, measured: YFP reporter; E. coli; PhoQ-PhoP variant library, with: 10 µM Mg2+; baseline: high Mg2+ state, higher = stronger signaling): 4.56

Some of these lines once more (study 2):
PPWRRRLLFACSP [H3W]: 0.199
